Published values of several laboratories.
Parts stem from different laboratories: compare values within a part only. Several values in a cell are separate wells, animals, samples, runs or records.
Sequence of UniProt Q8IVW4 (whole entry, looked up): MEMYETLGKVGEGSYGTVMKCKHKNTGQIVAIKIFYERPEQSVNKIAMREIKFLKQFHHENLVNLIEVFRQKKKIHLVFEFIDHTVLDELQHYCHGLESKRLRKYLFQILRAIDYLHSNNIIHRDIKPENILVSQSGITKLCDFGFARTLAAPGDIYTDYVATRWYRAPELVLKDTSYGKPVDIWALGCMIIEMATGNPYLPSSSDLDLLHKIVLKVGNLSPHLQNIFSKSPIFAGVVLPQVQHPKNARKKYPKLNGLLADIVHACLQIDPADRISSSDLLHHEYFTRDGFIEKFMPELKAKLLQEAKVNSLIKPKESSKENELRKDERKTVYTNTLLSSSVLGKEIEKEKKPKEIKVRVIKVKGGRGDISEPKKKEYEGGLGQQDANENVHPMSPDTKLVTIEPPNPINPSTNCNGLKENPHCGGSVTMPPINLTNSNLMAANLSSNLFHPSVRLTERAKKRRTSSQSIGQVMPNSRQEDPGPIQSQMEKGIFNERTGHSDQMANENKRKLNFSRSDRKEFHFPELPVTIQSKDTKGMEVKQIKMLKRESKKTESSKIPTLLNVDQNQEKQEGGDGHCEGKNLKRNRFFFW
Sequence of UniProt P36897 (whole entry, looked up): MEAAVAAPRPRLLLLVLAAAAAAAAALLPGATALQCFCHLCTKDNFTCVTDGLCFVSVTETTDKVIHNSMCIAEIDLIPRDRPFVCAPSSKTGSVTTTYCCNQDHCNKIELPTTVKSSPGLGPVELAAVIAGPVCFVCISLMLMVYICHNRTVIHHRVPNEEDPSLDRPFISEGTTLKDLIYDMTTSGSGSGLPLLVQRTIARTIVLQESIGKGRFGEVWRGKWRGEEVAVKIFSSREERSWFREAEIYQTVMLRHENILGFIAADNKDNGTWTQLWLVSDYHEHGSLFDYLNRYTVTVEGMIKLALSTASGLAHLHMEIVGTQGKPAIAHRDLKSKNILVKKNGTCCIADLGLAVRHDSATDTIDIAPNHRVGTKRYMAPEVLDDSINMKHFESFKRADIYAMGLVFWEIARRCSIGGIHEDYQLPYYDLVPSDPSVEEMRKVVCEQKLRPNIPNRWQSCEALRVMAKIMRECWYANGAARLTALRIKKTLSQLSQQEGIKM
Sequence of UniProt P43403 (whole entry, looked up): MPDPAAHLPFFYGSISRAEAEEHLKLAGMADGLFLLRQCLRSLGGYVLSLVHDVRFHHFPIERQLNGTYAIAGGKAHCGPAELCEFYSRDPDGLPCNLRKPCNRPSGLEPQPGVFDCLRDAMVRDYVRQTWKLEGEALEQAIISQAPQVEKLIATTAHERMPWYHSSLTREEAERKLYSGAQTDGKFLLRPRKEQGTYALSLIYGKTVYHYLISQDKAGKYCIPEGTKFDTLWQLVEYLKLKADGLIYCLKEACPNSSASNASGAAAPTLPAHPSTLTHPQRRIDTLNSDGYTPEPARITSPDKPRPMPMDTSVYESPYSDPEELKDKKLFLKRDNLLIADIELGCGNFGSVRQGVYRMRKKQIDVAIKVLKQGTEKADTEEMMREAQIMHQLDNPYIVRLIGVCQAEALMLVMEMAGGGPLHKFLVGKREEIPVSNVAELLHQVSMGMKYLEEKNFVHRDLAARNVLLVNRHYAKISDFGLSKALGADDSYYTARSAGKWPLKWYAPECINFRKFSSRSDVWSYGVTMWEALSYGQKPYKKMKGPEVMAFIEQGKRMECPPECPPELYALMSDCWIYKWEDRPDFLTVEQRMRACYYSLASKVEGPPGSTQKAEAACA
Sequence of UniProt Q9UK32 (whole entry, looked up): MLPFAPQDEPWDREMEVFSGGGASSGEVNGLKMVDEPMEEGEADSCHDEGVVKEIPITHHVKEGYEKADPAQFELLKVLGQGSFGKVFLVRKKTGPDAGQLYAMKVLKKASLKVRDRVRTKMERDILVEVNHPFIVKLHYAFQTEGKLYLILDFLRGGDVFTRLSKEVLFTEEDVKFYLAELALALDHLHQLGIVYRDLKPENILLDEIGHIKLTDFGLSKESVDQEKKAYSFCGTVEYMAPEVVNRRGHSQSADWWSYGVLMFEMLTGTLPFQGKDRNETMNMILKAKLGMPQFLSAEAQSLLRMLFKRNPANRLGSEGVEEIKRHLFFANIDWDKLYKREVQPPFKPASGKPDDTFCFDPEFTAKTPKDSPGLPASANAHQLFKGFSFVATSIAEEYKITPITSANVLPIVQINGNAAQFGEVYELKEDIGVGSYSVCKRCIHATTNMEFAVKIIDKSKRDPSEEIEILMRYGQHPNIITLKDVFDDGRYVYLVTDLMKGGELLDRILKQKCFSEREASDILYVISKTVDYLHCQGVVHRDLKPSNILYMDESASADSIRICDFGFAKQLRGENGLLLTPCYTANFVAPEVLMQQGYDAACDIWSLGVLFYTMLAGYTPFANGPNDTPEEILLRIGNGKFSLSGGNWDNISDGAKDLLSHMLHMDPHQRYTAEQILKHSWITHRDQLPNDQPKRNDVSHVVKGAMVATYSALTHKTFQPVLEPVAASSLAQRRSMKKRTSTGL
Sequence of UniProt Q9BRS2 (whole entry, looked up): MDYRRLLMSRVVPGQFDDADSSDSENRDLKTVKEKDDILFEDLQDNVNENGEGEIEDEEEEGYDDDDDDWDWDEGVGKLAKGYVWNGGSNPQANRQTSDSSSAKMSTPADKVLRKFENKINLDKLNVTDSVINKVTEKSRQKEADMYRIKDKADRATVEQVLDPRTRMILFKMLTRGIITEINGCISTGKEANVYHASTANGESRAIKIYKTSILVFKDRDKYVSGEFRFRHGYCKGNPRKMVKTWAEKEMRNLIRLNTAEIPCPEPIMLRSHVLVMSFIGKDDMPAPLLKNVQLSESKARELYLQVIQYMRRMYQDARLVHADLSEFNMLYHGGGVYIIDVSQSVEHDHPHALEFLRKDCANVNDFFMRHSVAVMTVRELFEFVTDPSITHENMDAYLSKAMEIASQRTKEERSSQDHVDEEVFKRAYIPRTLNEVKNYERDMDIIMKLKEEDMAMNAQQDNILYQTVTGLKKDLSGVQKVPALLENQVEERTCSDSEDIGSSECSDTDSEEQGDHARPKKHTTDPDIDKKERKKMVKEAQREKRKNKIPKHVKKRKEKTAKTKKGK
Sequence of UniProt P09769 (whole entry, looked up): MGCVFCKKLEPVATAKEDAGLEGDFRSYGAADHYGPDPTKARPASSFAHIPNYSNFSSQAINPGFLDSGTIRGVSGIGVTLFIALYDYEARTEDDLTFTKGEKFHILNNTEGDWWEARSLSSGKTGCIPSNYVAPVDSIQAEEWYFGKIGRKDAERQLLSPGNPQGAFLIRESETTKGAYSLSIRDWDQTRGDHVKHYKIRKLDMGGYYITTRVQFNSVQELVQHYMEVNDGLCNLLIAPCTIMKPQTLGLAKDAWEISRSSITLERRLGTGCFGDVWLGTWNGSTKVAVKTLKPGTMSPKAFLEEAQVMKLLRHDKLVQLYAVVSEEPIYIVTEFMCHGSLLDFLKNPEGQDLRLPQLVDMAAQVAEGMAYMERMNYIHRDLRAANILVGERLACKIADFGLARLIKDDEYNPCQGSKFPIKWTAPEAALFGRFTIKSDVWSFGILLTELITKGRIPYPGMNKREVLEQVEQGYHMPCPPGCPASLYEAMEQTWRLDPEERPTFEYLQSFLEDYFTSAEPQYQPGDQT
Sequence of UniProt Q92630 (whole entry, looked up): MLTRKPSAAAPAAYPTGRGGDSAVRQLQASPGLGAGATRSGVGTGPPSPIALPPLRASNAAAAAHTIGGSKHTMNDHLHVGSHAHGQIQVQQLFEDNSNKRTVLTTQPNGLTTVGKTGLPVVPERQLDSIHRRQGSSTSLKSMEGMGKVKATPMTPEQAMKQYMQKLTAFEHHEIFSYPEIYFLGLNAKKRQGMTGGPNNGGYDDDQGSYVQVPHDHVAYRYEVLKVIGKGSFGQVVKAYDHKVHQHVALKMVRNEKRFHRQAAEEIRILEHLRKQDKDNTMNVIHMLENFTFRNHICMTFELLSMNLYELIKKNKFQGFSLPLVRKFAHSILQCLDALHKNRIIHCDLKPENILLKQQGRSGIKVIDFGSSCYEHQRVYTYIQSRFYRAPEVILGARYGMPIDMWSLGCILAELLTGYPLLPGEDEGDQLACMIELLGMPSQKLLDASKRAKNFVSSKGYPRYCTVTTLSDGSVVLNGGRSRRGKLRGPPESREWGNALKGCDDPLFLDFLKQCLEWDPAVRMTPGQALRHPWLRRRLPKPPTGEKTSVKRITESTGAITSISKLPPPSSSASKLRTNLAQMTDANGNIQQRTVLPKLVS
Sequence of UniProt Q07002 (whole entry, looked up): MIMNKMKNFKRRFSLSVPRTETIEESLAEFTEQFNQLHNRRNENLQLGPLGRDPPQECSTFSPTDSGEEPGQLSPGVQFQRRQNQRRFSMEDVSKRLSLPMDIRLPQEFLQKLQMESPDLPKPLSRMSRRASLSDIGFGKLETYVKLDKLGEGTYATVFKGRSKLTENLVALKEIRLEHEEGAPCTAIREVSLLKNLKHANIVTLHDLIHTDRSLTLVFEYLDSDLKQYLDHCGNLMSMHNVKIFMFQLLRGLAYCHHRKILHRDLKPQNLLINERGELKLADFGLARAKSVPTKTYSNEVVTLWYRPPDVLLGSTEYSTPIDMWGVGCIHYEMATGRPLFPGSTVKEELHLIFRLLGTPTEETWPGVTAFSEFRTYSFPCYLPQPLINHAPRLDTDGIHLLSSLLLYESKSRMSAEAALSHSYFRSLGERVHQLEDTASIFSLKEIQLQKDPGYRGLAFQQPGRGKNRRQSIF

Set 1 — read-out: enzyme activity; action: inhibitor; tested at: 0.5 µM; reference: control; measurement: remaining activity
Target: Serine/threonine-protein kinase TAO1 (TAOK1, Homo sapiens, UniProt Q7L7X3)
Construct (Q7L7X3 1-1001): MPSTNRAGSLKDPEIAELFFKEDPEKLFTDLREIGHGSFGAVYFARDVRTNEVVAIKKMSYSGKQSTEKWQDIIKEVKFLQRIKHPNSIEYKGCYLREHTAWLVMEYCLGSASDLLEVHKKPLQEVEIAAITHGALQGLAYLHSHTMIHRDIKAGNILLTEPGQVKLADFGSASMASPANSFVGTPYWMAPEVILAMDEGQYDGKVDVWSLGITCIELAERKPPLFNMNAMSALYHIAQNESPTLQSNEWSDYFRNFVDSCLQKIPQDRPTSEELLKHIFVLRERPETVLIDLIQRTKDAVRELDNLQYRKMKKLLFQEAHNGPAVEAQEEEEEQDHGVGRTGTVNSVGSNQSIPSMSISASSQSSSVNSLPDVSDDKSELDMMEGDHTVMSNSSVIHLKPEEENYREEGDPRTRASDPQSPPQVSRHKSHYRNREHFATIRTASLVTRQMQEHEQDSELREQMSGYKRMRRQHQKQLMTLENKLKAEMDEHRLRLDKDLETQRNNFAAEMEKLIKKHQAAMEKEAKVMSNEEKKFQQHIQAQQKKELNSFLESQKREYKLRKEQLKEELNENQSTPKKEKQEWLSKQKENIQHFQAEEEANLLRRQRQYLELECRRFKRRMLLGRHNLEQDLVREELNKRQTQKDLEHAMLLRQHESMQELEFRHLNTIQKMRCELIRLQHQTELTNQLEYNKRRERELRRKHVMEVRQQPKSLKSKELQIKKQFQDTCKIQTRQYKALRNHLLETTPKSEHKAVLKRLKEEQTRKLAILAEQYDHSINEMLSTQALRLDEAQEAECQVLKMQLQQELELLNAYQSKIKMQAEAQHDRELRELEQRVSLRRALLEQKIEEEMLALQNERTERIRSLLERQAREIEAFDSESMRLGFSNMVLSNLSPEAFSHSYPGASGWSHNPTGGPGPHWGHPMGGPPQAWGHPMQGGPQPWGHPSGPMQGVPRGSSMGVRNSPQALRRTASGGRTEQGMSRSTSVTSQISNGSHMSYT
CCN(CC)CCCCN1c2ccccc2Oc2ccc(Cl)cc21: 97.9%
c1cc(-c2cnn3cc(-c4ccc(OCCN5CCCCC5)cc4)cnc23)ccn1: 84.8%
N#C/C(=C(/N)SC1C=CC=CC1)c1cccc(C(O)c2ccncc2)c1 (stereo not shown): 89.2%
O=Nc1c(-c2c(O)[nH]c3ccccc23)[nH]c2ccccc12: 102%
FC(F)(F)c1ccc(/C=C/c2nc(COc3ccc(CCCCn4ccnn4)cc3)co2)cc1: 102%
O=C(c1ccccc1)c1ccc(N2CCOCC2)cc1O: 100%
CC(C)N(CCC(=O)c1ccc2ccccc2c1)Cc1ccccc1: 94.9%
CCCCc1c(-c2ccc(O)cc2)[nH]c2nccnc12: 70.9%
O=c1c(-c2ccc(F)cc2)c(-c2ccncc2)[nH]n1-c1ccc(Cl)cc1: 102%
O=C1NC(=O)/C(=C/c2ccc3c(c2)OC(F)(F)O3)S1: 90%
NC(=O)c1ccc(-c2nc(-c3ccc4c(c3)OCCO4)c(-c3ccccn3)[nH]2)cc1: 95.4%
COc1cc2c(Nc3ccc(Br)cc3F)ncnc2cc1OCC1CCN(C)CC1: 103%
Nc1nc(Nc2ccc(S(N)(=O)=O)cc2)nn1C(=S)Nc1c(F)cccc1F: 11.3%
CC(C)n1cnc2c(Nc3cccc(Cl)c3)nc(NCCO)nc21: 94.4%
CC(C)(C)c1nc2c3cc[nH]c(=O)c3c3cc(F)ccc3c2[nH]1: 86.9%
O=C1c2ccccc2-c2nc3nnnn3nc21: 90.2%
N#CC(c1ccnc(NCCc2cccnc2)n1)c1nc2ccccc2s1 (stereo not shown): 98%
O=C(O)/C=C/c1cc(Br)c(Br)c(Br)c1Br: 56.3%
C[C@@H](N)[C@H]1CC[C@H](C(=O)Nc2ccncc2)CC1: 96.6%
CNc1cc2c(Nc3cccc(Br)c3)ncnc2cn1: 92.4%
COc1cc2c(N3CCN(C(=O)Nc4ccc(OC(C)C)cc4)CC3)ncnc2cc1OCCCN1CCCCC1: 103%

Set 2 — read-out: cell-free assay; method: competition with immobilised ligand; tested at: 1 µM; measurement: remaining binding
Compound: CC(=O)N1CCC(c2ccc(C(=O)NC3=NCCN3)cc2C(F)(F)F)CC1
Serine/threonine-protein kinase PLK4 (PLK4, Homo sapiens, UniProt O00444): 100%
Serine/threonine-protein kinase DCLK1 (DCLK1, Homo sapiens, UniProt O15075): 89%
Serine/threonine-protein kinase RIO1 (RIOK1, Homo sapiens, UniProt Q9BRS2): 100%
Serine/threonine-protein kinase WNK1 (WNK1, Homo sapiens, UniProt Q9H4A3): 99%
Tyrosine-protein kinase Fgr (FGR, Homo sapiens, UniProt P09769): 100%
Dual specificity testis-specific protein kinase 1 (TESK1, Homo sapiens, UniProt Q15569): 72%
Cyclin-dependent kinase 18 (CDK18, Homo sapiens, UniProt Q07002): 100%
Dual specificity tyrosine-phosphorylation-regulated kinase 2 (DYRK2, Homo sapiens, UniProt Q92630): 93%
Tyrosine-protein kinase ABL1, phosphorylated (ABL1, Homo sapiens, UniProt P00519, H396P): 100%
Mitogen-activated protein kinase 8 (MAPK8, Homo sapiens, UniProt P45983): 84%
Homeodomain-interacting protein kinase 4 (HIPK4, Homo sapiens, UniProt Q8NE63): 100%
Tyrosine-protein kinase ZAP-70 (ZAP70, Homo sapiens, UniProt P43403): 97%
Ribosomal protein S6 kinase alpha-6, N-terminal kinase domain (RPS6KA6, Homo sapiens, UniProt Q9UK32): 94%
Atypical kinase COQ8A, mitochondrial (COQ8A, Homo sapiens, UniProt Q8NI60): 95%
Cyclin-dependent kinase-like 3 (CDKL3, Homo sapiens, UniProt Q8IVW4): 100%
Ephrin type-A receptor 4 (EPHA4, Homo sapiens, UniProt P54764): 100%
Transient receptor potential cation channel subfamily M member 6 (TRPM6, Homo sapiens, UniProt Q9BX84): 90%
TGF-beta receptor type-1 (TGFBR1, Homo sapiens, UniProt P36897): 100%

Set 3 — cell line: A-375; tested at: 100 µM; time: 36 h; measurement: viability
CC(C)(C#N)c1cc(Cn2cncn2)cc(C(C)(C)C#N)c1: 103%
Cc1onc(-c2ccccc2Cl)c1C(=O)N[C@@H]1C(=O)N2[C@@H]1SC(C)(C)[C@@H]2C(=O)O: 102%
COC(=O)/C=C/C(=O)OC: 79.2%
COc1c(C)c2c(c(O)c1C/C=C(\C)CCC(=O)O)C(=O)OC2: 33.1%
NC(=O)c1ncn([C@@H]2O[C@H](CO)[C@@H](O)[C@H]2O)n1: 100%
O=c1oc2ccccc2c(O)c1Cc1c(O)c2ccccc2oc1=O: 32.9%
COC(=O)C1=CO[C@@H](O[C@@H]2O[C@H](CO)[C@@H](O)[C@H](O)[C@H]2O)[C@@H]2C(CO)=CC[C@H]12: 116%
CC(=O)OCC(COC(C)=O)OC(C)=O: 122%
CCCCC(O)c1ccccc1 (stereo not shown): 106%
O=C(O)c1cc(O)c2c(c1)[C@H]([C@H]1c3cc(C(=O)O)cc(O)c3C(=O)c3c(O[C@@H]4O[C@H](CO)[C@@H](O)[C@H](O)[C@H]4O)cccc31)c1cccc(O[C@@H]3O[C@H](CO)[C@@H](O)[C@H](O)[C@H]3O)c1C2=O: 108%
COc1cc(Cc2cnc(N)nc2N)cc(OC)c1OC: 101%
COc1cc2nccc(Oc3ccc(NC(=O)NC4CC4)c(Cl)c3)c2cc1C(N)=O: 82.5%
CC(/C=C1\SC(=S)N(CC(=O)O)C1=O)=C\c1ccccc1: 107%
CS(=O)(=O)c1ccc(C2=C(c3ccccc3)C(=O)OC2)cc1: 114%
Cc1noc(NS(=O)(=O)c2ccc(N)cc2)c1C: 98.2%
CNC(=O)c1cnn(-c2nc(N)c3ncn([C@@H]4O[C@H](CO)[C@@H](O)[C@H]4O)c3n2)c1: 101%
C[C@H](N)[C@H](O)c1cccc(O)c1: 129%
O=C(Nc1ccccc1)OCC(CN1CCCCC1)OC(=O)Nc1ccccc1 (stereo not shown): -1.21%
CC(C)(C)CC(C)(C)c1ccc(O)c(Cc2ccc(Cl)cc2Cl)c1: -1.33%

Set 4 — cell line: mouse MPNST tumor cells; method: high-content immunofluorescence imaging; refers to: nuclear SOX9; tested at: 10 µM; time: 12 h; setting: mean of 2 replicates; reference: DMSO control; direction: higher = more nuclear SOX9; measurement: nuclear SOX9 intensity
CCN(CC)S(=O)(=O)Nc1cccc(-c2ccc3c(NC(=O)C4CC4)n[nH]c3c2)c1: 182 % of DMSO
CCc1ccc(NC(=O)Nc2c[nH]c3ccccc23)cc1: 146 % of DMSO
C=CCN1CCc2nc(N)sc2CC1: 107 % of DMSO
C#CCNc1nccc(-c2ccc(-n3ccnc3)cc2)n1: 94.8 % of DMSO
CCN1C(=CC(C)=O)Sc2ccc(OC)cc21: 80.5 % of DMSO
CC(C)C(=O)Nc1ccc([N+](=O)[O-])c(C(F)(F)F)c1: 106 % of DMSO and 98.4 % of DMSO and 99.8 % of DMSO
S=c1[nH]cnc2nc[nH]c12: 110 % of DMSO
O=c1[nH]c(=O)n([C@H]2C[C@H](O)[C@@H](CO)O2)cc1C(F)(F)F: 135 % of DMSO and 144 % of DMSO
CC(C)[C@H](CO)Nc1nc(Nc2cccc(Cl)c2)c2ncn(C(C)C)c2n1: 100 % of DMSO
CCOC(=O)n1ccn(C)c1=S: 87.7 % of DMSO
Nc1nc(=S)c2ncn([C@@H]3O[C@H](CO)[C@@H](O)[C@H]3O)c2[nH]1: 109 % of DMSO
O=C(NCc1ccccn1)Nc1nnc(-c2ccco2)o1: 92.1 % of DMSO
Oc1c(Cl)cc(Cl)c(Cl)c1Cc1c(O)c(Cl)cc(Cl)c1Cl: 105 % of DMSO
CO[C@H]1O[C@@H]2O[C@@]3(C)CC[C@H]4[C@H](C)CC[C@@H]([C@H]1C)[C@@]24OO3: 114 % of DMSO
Cc1ncc([N+](=O)[O-])n1CCO: 91.7 % of DMSO and 108 % of DMSO

Excerpt of the above (set 1):
O=c1c(-c2ccc(F)cc2)c(-c2ccncc2)[nH]n1-c1ccc(Cl)cc1: 102%
O=C1NC(=O)/C(=C/c2ccc3c(c2)OC(F)(F)O3)S1: 90%
NC(=O)c1ccc(-c2nc(-c3ccc4c(c3)OCCO4)c(-c3ccccn3)[nH]2)cc1: 95.4%
COc1cc2c(Nc3ccc(Br)cc3F)ncnc2cc1OCC1CCN(C)CC1: 103%
Nc1nc(Nc2ccc(S(N)(=O)=O)cc2)nn1C(=S)Nc1c(F)cccc1F: 11.3%
CC(C)n1cnc2c(Nc3cccc(Cl)c3)nc(NCCO)nc21: 94.4%
CC(C)(C)c1nc2c3cc[nH]c(=O)c3c3cc(F)ccc3c2[nH]1: 86.9%
O=C1c2ccccc2-c2nc3nnnn3nc21: 90.2%
N#CC(c1ccnc(NCCc2cccnc2)n1)c1nc2ccccc2s1 (stereo not shown): 98%
O=C(O)/C=C/c1cc(Br)c(Br)c(Br)c1Br: 56.3%
C[C@@H](N)[C@H]1CC[C@H](C(=O)Nc2ccncc2)CC1: 96.6%
CNc1cc2c(Nc3cccc(Br)c3)ncnc2cn1: 92.4%
